{"data": "Assay results of several laboratories"}
{"Compound": "Cc1cc(-c2nccc3c2ccn3CC(=O)Nc2ccc(-c3cnccn3)cn2)ccn1", "test system": "human, plasma and urine", "conditions": "oral, 40 mg single dose, geometric mean", "renal clearance [mL/min]": 11.9}
{"Compound": "Cn1cc(-c2cn3nccc3c(-c3cnn([C@]4(CC#N)C[C@@H](C#N)C4)c3)n2)cn1", "test system": "healthy human", "conditions": "dose not given, day 10, once daily dosing", "renal clearance [mL/min]": 16.7}
{"Compound": "CC(C)n1c(C2CCNCC2)nc2c([N+](=O)[O-])c(Br)c(Br)cc21", "test system": "human", "conditions": "oral, 100 mg single dose, mean", "renal clearance [mL/min]": 11.8}
{"Compound": "CN[C@@H]1COc2c(S(=O)(=O)NC(=O)Nc3c4c(cc5c3CCC5)CCC4)cnn2C1", "test system": "human, urine", "conditions": "oral, 900 mg twice daily, 0-12 h, day 7", "renal clearance [mL/min]": 5.67}
{"Compound": "O=C(c1nc2n(n1)[C@H](c1ccccc1)C[C@@H]2F)C1CC1", "test system": "human", "conditions": "5 mg single dose", "renal clearance [mL/min]": "0.074 to 0.265"}
{"Compound": "Cl.[2H]C([2H])([2H])CC(=O)c1cnc(NC(=O)C2CC2)cc1Nc1cccc(-c2ncn(C([2H])([2H])[2H])n2)c1OC", "test system": "human, non-fasted", "conditions": "oral, 60 mg, once daily multiple dose, mean", "renal clearance [mL/min]": 1.06}
{"Compound": "C[C@@H](Cn1ccc(-c2ccc(C#N)c(Cl)c2)n1)NC(=O)c1cc([C@@H](C)O)[nH]n1", "test system": "human, fasted, plasma", "conditions": "oral solution, 300 mg 14C-darolutamide, geometric mean", "renal clearance [mL/min]": 10.3}
{"Compound": "C[C@@H](Oc1ccc(S(C)(=O)=O)cc1C(=O)N1C[C@@H]2C[C@]2(c2cc(C(F)(F)F)on2)C1)C(F)(F)F", "test system": "young healthy humans, plasma and urine", "conditions": "oral, 75 mg, 0 to 24 h, single dose", "renal clearance [mL/min]": 6.03}
{"Compound": "CN(C)C(=O)c1cc2cnc(Nc3ccc(N4CCNCC4)cn3)nc2n1C1CCCC1", "test system": "human, normal renal function, plasma and urine", "conditions": "oral, 400 mg, single dose, geometric mean", "renal clearance [mL/min]": 84.7}
{"note": "Some of these lines once more:"}
{"Compound": "C[C@@H](Oc1ccc(S(C)(=O)=O)cc1C(=O)N1C[C@@H]2C[C@]2(c2cc(C(F)(F)F)on2)C1)C(F)(F)F", "test system": "young healthy humans, plasma and urine", "conditions": "oral, 75 mg, 0 to 24 h, single dose", "renal clearance [mL/min]": 6.03}
